Experimental data from different studies.
Parts stem from different laboratories: compare values within a part only. Substitutions count along the parent as printed.

Series 1
Target: RING finger protein unkempt homolog, zinc fingers 1-6, GST-SBP tag (UNK, Homo sapiens, UniProt Q9C0B0, residues 30-357)
Technique: RNA Bind-n-Seq
Molecule type: RNA
Matrix: in vitro
Concentration: not given
Setting: RNA with constant flanks, human and mouse sites, ends assumed
Relative to: input RNA pool
Reading: higher = stronger binding
Construct (chain): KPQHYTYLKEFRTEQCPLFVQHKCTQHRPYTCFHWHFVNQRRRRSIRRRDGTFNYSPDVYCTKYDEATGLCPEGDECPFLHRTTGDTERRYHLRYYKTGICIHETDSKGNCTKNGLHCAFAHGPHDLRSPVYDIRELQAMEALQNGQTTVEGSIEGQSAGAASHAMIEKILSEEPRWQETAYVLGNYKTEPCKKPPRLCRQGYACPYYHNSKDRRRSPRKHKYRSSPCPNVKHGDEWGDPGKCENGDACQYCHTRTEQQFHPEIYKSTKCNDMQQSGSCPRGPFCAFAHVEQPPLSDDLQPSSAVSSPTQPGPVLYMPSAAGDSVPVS
`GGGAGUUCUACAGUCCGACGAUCAGCAAAAGAGCCAAGCAGUAGCAAUGUUUGUUUUUUUUUUUUUUUGUAAAUGUAAAAAUAAUUAGCUCUAGACCUGUUUCCUUUGAUUUAAAAAUAAAGAAUGCCUCAGUGCUGCUCUCACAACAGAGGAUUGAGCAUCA` has a bound/input enrichment of 1.25 ratio.
`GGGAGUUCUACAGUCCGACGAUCCUGAUAAAUGGUUUUGGAUCUUCUUCAGAGGGUUCCUCAGAGAAGCAAUCAAACUCCACUCUUUCUUUUGACUGGAGCCAACCAAGUGUUGUGUUUCAGGAUGACUCUUUAGAGUUAAAACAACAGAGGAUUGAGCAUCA` gave a bound/input enrichment of 0.101 ratio.
For `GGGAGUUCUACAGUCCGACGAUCGAAGAGGUCCUCGAUCAUGGUGUUAGAAUUGACUGGAUAGUAACAGGUGGUCUGGUGGAUAGCGGGGAGCAUGGCUCAGCACCAGAGCAGAGGCCCAGCCAGCCCUCUGCAGCCCAAACGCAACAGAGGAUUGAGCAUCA`, the bound/input enrichment was 0.264 ratio.
For `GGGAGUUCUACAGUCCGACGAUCCAUUCGAAGGUUAAUGAUGAUUGUGAUGUUUAGGAAUGUUUGUCUCAGCCACAGUUCCUUCAUAGCUUUUCCAAAAUGAAUUGGGAAAAAAAAAUCGUAUAGCAGUCUUAAAGCUUAGUACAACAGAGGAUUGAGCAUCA`, the bound/input enrichment was 2.51 ratio.
The bound/input enrichment of `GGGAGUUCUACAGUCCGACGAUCUGGUAACAAGAGACUGGAUGCCGCCUAUCGUUCCAUGAAUGGGAAGGGUCCCGUGUACUUACUUUUCAGUGUCAACGGCAGUGGACACUUCUGUGGAGUUGCAGAGAUGAAAUCUGCUGUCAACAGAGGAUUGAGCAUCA` is reported as 0.091 ratio.
For `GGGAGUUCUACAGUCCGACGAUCCCAUCCCUCAGUGACAGUAUGCCUUCUGUAGCAGAUUCUCACUCUAGUCAUUUUUCUGAAUUUAGUUGUUCUGACCUAGAAAGCAUGAAAACUUCUUGUAGUCAUGGUUCCAGUGAUUAUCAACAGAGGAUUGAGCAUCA`, the bound/input enrichment was 16.7 ratio.
With `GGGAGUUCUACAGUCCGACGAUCGCCUCCGAGGACGGCCGCUGCAUCCGUGAGAUCCCUGACCCUGAUGGCGCCGAAUUGCUCUGCUGCACCUUCCAGCCAGUCAACAACAACCUCACUGUGGUGGGGAACGCCAAGCACAACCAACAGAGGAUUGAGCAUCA` the bound/input enrichment was 0.0932 ratio.
`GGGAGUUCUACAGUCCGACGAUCAGCCAGGGCAAGCCUGGCAGUCCAGAACCUGAAACAGAGCCUGUUUCUUCAGUUCAGGAGAACCAUGAAAACGAAAGAAUUCCUCGGCCACUCAGCCCAACUAAAUUACUGCCUUUCUUACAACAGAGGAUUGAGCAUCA` gave a bound/input enrichment of 0.139 ratio.

Series 2
Target: Transcriptional repressor CTCF (CTCF, Homo sapiens, UniProt P49711, residues 1-727, full length assumed)
Sequence of UniProt P49711 (whole entry, looked up): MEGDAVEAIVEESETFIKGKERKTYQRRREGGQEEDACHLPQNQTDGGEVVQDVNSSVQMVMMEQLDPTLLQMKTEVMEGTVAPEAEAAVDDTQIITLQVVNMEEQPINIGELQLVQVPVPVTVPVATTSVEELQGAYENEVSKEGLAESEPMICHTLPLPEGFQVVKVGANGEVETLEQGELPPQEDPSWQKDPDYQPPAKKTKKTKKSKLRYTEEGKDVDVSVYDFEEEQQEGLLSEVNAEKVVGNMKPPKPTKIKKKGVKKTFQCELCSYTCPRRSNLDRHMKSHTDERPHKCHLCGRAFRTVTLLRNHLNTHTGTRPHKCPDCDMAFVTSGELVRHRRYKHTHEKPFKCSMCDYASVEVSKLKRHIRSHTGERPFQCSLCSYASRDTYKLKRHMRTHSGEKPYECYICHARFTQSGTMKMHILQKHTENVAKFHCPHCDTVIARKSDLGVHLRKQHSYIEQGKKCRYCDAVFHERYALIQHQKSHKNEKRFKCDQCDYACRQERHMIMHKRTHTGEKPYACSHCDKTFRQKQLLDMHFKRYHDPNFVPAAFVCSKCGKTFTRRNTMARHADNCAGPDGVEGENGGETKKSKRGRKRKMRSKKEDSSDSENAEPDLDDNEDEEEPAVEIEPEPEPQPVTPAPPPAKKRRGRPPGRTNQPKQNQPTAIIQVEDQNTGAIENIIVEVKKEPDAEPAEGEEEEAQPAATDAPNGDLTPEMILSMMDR
Technique: protein-binding microarray
Molecule type: double-stranded DNA, one strand shown
Matrix: in vitro
Concentration: not given
Setting: k-mer, scored over probes, only values ≥0.25
Reading: higher = stronger binding
`CGCTAATA` has an E-score of 0.276.
With `GGTAATAA` the E-score was 0.279.
The E-score of `CTATGCGC` is reported as 0.356.
`AATGTAAA` gave an E-score of 0.254.
`CGCCCCCC` gave an E-score of 0.282.
With `AAGGGGGC` the E-score was 0.31.
For `ATACAACA`, the E-score was 0.258.
With `AAACATCA` the E-score was 0.252.

Series 3
Target: Prothrombin, mature alpha-thrombin (F2, Homo sapiens, UniProt P00734)
Technique: aptamer microarray, sandwich
Molecule type: DNA with 2'F-ANA
Matrix: in vitro
Concentration: 200 nM
Setting: whole 15-mer aptamer, many near background
Together with: Cy3 exosite-II aptamer, 400 nM
Reading: higher = stronger binding
Oligonucleotide: GGTTGGTGTGGTTGG
Under “mean fluorescence intensity”, `2'F-ANA at 2 3 5 7 8 13 14` is recorded as 54.3 a.u.
For `2'F-ANA at 4 6 7 9 10 12 15`, “mean fluorescence intensity” read 103 a.u.
`2'F-ANA at 1 5 6 8 10 11 13 15` — result for “mean fluorescence intensity”: 49.1 a.u.
`2'F-ANA at 1 2 4 5 6 10 11 13 15`: “mean fluorescence intensity” 49.8 a.u.
For `2'F-ANA at 1 2 5 6 9 10 12 13`, “mean fluorescence intensity” read 51 a.u.
Under “mean fluorescence intensity”, `2'F-ANA at 3 5 6 7 8 10 12 13 14` is recorded as 43.1 a.u.
`2'F-ANA at 1 2 5 8 9 10 11 12 13 14 15` — result for “mean fluorescence intensity”: 105 a.u.
For `2'F-ANA at 8 10 15`, “mean fluorescence intensity” read 199 a.u.

Single results of other studies
Starting sequence: PafA, mature enzyme, eGFP fusion (Elizabethkingia meningoseptica, UniProt Q9KJX5); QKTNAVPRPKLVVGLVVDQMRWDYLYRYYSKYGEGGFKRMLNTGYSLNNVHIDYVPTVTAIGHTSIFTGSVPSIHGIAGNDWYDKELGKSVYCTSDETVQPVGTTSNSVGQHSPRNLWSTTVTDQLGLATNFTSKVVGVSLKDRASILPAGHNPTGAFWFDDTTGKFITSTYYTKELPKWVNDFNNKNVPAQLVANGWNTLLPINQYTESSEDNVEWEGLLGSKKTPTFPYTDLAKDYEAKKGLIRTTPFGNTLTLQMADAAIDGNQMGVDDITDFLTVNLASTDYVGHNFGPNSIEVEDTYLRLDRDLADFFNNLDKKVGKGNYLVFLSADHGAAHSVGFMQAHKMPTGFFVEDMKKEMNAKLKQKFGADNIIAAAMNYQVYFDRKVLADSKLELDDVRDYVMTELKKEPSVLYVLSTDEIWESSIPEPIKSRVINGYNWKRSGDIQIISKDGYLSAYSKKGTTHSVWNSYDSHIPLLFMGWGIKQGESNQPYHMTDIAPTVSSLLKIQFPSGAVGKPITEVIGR
`L148V` — result for “phosphate dissociation constant”: 614 µM (inorganic phosphate, free oxyanion; microfluidic competitive inhibition; in vitro, cell-free expressed; not given, derived from inhibition constants, unchanged parent 615000 nM; lower = stronger binding).

A few entries again (series 1):
For `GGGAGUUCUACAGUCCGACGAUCCAUUCGAAGGUUAAUGAUGAUUGUGAUGUUUAGGAAUGUUUGUCUCAGCCACAGUUCCUUCAUAGCUUUUCCAAAAUGAAUUGGGAAAAAAAAAUCGUAUAGCAGUCUUAAAGCUUAGUACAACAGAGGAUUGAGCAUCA`, the bound/input enrichment was 2.51 ratio.
`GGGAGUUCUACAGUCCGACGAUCAGCAAAAGAGCCAAGCAGUAGCAAUGUUUGUUUUUUUUUUUUUUUGUAAAUGUAAAAAUAAUUAGCUCUAGACCUGUUUCCUUUGAUUUAAAAAUAAAGAAUGCCUCAGUGCUGCUCUCACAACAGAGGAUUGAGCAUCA` has a bound/input enrichment of 1.25 ratio.
For `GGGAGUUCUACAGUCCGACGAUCGAAGAGGUCCUCGAUCAUGGUGUUAGAAUUGACUGGAUAGUAACAGGUGGUCUGGUGGAUAGCGGGGAGCAUGGCUCAGCACCAGAGCAGAGGCCCAGCCAGCCCUCUGCAGCCCAAACGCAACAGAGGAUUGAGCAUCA`, the bound/input enrichment was 0.264 ratio.
With `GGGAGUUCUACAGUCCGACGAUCGCCUCCGAGGACGGCCGCUGCAUCCGUGAGAUCCCUGACCCUGAUGGCGCCGAAUUGCUCUGCUGCACCUUCCAGCCAGUCAACAACAACCUCACUGUGGUGGGGAACGCCAAGCACAACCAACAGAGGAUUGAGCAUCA` the bound/input enrichment was 0.0932 ratio.
